Experimental data gathered from unrelated publications.
± marks the error that the study gave.
cyp121: Mycocyclosin synthase (cyp121, Mycobacterium tuberculosis, UniProt P9WPP7)

The chains behind the UniProt entries cited, without tags or fusion partners. Residues count along the entry.
UniProt P9WPP7, whole entry: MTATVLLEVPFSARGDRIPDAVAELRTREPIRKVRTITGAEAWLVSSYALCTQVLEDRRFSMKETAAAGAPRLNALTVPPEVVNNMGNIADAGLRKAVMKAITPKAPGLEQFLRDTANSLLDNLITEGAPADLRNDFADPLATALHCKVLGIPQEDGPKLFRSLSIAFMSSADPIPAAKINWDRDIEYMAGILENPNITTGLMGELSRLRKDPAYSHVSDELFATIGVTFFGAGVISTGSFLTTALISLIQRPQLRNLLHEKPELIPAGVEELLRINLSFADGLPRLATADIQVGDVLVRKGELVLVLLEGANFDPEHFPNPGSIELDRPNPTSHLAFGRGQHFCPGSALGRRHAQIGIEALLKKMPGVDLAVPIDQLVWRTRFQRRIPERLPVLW
UniProt P00784, whole entry, looked up: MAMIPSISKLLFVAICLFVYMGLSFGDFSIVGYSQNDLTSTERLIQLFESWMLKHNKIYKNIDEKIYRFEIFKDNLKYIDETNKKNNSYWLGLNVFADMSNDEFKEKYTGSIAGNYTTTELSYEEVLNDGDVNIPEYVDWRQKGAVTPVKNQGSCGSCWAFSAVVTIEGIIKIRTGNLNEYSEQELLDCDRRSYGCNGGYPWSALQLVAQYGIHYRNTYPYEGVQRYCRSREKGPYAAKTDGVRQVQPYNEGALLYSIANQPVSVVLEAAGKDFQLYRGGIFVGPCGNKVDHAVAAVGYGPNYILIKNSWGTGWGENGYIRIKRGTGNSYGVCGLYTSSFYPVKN
UniProt P19784, whole entry: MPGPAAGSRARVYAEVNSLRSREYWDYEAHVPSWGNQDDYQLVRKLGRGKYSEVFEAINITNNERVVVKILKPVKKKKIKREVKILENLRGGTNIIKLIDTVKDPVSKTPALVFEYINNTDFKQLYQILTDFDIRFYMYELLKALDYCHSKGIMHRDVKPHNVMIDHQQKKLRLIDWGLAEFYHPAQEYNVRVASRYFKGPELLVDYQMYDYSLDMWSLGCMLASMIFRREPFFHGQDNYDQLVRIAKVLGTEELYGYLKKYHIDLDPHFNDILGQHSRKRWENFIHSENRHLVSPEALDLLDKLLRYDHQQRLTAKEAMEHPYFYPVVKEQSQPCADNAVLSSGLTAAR
UniProt P00533, 25-1210 limits assumed: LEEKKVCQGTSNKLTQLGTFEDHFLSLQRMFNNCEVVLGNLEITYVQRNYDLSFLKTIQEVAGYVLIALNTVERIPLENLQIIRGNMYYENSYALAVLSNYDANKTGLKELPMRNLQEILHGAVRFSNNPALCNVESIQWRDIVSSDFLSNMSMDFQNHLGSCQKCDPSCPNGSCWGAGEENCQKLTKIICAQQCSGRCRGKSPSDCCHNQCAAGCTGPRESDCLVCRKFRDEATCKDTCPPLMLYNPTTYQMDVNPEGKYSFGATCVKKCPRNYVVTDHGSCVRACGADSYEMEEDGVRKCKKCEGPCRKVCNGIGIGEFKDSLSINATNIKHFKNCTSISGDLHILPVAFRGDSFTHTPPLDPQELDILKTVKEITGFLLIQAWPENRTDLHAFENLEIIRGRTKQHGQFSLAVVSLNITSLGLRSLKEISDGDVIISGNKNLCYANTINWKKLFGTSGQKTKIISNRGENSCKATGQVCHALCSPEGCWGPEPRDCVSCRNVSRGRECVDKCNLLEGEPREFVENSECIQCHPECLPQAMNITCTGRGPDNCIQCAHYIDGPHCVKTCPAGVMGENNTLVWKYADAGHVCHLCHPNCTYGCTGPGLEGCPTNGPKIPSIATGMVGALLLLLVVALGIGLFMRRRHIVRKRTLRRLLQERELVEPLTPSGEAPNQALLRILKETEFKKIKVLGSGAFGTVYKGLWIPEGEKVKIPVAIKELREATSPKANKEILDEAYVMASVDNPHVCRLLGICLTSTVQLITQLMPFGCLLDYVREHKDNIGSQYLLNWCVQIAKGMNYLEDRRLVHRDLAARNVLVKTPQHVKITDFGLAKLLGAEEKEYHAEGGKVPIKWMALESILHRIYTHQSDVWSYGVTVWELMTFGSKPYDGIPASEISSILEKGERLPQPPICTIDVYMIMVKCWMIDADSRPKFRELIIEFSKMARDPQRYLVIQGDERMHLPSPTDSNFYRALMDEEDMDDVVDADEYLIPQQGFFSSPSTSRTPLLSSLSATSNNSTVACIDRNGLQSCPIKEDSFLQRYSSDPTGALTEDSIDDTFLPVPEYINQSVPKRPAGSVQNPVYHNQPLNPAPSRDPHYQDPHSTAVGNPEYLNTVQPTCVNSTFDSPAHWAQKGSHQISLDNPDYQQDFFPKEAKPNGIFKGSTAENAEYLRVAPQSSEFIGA
UniProt O00519, whole entry: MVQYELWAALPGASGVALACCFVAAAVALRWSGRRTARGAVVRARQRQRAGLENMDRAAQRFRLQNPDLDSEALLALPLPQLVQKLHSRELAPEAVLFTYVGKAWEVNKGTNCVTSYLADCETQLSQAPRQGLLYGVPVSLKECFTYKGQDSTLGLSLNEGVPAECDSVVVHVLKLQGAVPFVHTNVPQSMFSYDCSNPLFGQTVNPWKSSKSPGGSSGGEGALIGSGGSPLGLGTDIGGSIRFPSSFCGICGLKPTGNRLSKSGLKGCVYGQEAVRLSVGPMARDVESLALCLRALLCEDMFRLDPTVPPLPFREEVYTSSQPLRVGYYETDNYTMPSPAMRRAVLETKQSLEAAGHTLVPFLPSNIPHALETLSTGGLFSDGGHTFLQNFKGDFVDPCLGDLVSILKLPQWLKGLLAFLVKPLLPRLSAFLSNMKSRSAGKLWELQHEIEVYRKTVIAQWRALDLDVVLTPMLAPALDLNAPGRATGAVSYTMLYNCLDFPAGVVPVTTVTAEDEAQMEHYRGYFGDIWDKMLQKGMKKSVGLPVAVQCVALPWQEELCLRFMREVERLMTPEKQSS
UniProt P0C0H6, whole entry: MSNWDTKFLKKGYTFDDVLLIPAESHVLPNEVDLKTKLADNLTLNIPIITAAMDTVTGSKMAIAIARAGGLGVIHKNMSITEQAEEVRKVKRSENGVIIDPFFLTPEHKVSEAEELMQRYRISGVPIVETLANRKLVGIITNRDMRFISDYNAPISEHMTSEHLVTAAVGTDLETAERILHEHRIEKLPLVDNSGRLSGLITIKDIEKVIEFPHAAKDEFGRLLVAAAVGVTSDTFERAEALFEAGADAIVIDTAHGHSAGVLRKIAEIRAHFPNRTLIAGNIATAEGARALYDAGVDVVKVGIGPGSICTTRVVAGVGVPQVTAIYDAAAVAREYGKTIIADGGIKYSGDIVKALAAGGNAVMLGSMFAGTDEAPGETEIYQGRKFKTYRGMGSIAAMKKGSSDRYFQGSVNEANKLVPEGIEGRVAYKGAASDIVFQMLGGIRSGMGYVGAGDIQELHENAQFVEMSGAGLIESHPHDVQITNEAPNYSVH
UniProt Q9K054, 1-233: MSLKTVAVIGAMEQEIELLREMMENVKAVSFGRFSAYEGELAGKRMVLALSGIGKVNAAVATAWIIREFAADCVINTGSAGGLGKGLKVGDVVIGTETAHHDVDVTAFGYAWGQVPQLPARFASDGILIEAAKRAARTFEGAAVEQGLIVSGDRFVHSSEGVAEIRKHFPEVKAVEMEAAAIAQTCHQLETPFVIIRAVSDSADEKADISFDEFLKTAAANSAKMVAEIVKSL
UniProt P06802, 92-905 isoform 2 limits assumed: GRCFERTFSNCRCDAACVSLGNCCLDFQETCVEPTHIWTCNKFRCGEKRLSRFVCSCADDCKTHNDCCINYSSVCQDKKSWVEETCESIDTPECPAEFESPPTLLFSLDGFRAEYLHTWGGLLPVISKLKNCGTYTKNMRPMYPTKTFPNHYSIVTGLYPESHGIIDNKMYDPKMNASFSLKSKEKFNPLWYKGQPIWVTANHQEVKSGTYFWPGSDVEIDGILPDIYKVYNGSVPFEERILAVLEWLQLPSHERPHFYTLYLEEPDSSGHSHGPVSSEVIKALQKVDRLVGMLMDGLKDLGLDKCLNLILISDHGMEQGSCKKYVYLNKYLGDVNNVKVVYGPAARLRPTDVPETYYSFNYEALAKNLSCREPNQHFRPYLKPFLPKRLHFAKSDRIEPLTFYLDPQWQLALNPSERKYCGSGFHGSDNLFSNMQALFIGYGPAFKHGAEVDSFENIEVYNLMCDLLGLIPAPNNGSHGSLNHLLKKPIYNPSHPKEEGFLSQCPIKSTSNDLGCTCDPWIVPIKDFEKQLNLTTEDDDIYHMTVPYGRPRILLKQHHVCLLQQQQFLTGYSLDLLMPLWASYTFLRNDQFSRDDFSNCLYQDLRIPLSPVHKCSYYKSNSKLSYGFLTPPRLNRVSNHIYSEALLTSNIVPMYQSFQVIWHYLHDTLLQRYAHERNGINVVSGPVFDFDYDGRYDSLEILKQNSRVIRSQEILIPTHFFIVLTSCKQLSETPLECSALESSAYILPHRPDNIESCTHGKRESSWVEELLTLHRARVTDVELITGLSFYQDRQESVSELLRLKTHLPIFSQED
UniProt D0CA72, 1-326: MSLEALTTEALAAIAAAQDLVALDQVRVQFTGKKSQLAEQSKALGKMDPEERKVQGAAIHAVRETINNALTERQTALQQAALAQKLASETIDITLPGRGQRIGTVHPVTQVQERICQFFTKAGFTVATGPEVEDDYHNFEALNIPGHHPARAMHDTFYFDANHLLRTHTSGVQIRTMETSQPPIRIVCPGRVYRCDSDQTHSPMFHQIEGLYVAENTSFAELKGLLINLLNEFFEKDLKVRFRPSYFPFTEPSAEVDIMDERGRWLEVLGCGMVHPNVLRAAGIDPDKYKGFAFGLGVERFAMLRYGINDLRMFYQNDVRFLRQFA
UniProt P09668, whole entry, looked up: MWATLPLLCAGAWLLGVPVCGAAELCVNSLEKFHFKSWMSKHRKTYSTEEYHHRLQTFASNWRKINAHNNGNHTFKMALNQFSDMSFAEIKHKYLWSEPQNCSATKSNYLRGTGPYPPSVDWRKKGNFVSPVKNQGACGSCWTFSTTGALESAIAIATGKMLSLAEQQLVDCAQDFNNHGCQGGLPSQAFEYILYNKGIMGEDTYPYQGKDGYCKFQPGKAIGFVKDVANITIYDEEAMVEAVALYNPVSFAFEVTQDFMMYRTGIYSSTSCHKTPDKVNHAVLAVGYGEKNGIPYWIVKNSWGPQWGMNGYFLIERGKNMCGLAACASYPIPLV
UniProt Q8IM16, 122-449 limits assumed: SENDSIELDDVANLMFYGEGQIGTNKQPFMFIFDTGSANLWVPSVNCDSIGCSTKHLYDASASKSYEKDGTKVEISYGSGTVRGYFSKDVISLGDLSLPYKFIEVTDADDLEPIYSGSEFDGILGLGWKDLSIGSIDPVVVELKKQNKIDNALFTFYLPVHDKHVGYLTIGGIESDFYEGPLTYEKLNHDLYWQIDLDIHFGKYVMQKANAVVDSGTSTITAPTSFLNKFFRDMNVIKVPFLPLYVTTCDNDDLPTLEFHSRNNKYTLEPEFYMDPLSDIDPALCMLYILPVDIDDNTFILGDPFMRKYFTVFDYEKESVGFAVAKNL
UniProt Q8VIJ5, whole entry: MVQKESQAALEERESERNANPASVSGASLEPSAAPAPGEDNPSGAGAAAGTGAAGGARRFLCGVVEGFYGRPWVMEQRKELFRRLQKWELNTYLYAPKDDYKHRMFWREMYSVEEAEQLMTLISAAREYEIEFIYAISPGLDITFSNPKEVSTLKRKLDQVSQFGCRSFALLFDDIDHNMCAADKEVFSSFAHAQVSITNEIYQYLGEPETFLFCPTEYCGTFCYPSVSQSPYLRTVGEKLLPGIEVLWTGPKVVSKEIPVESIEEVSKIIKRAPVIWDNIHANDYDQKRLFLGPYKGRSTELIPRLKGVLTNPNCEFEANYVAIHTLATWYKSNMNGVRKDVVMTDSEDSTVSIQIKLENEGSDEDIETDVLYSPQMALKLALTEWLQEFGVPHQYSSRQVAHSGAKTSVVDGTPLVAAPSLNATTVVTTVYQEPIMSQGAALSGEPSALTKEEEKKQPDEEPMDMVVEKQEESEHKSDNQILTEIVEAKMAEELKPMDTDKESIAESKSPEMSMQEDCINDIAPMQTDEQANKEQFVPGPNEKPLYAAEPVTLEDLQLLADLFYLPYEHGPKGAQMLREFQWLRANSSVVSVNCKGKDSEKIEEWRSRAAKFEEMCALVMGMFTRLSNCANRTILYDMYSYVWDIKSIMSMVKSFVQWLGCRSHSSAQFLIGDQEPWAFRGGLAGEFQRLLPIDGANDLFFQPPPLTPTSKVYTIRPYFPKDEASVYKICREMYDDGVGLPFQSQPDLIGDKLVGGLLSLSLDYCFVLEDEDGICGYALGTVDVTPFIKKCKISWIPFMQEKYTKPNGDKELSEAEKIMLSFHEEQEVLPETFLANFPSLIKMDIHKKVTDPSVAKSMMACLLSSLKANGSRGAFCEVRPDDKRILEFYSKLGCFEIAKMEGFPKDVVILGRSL

With `[N-]=[N+]=CC(=O)[C@H](Cc1cccc([N+](=O)[O-])c1)NC(=O)OCc1ccccc1` the IC50 was 32800 ± 13000 nM (Papain (Carica papaya, UniProt P00784); enzyme activity, inhibitor).
`CC(c1ccc(-c2ccc(C(F)(F)F)cc2)cc1)n1ccnc1` (stereo not shown) has a Kd of 8600 ± 2000 nM (cyp121; binding).
With `CC(C)(NC(=O)Nc1ccc(Cl)c(-c2nc(C(F)(F)F)cs2)c1)c1cccc(C(N)=NO)c1` the Ki was 4.8 ± 1.5 nM (IMPDH 2, Staphylococcus aureus; inhibitor; together with: 500 µM NAD+, 1.0 mM IMP).
`Cc1ccc(N(C)c2cc(N(C)C3CC3)n3ncc(C#N)c3n2)cc1NC(=O)C1CC1` gave an IC50 of greater than 10000 nM (CSNK2A2 (Homo sapiens, UniProt P19784); target engagement, NanoBRET; HEK293).
With `C=CC(=O)Nc1cc(-n2c(=O)ccc3cnc4ccc(-c5cn[nH]c5)cc4c32)ccc1C` the IC50 was 597 nM (EGFR (Homo sapiens, UniProt P00533); kinase activity, inhibitor).
For `O=C(Cc1cccs1)N[C@@H](Cn1cc(C(=O)NO)nn1)B(O)O`, the Ki was 155 ± 3 nM (ADC-7 beta-lactamase (Acinetobacter baumannii, UniProt Q6DRA1); enzyme activity, inhibitor; 5 min preincubation, pH 7.4, room temperature, together with: nitrocefin).
With `[2H]c1c([2H])c(S(=O)(=O)N2CCC([2H])(C(=O)Nc3ccc4cc(C(=O)O)ccc4c3)CC2)c(C([2H])([2H])[2H])c([2H])c1C([2H])([2H])[2H]` the IC50 was 6800 nM (FAAH (Homo sapiens, UniProt O00519); pH 8, 37 °C, together with: OMP substrate 50 µM).
With `CC(Oc1ccccc1)C(=O)Nc1ccc(Cl)cc1` (stereo not shown) the IC50 was 12000 nM (Inosine-5'-monophosphate dehydrogenase (Streptococcus pyogenes, UniProt P0C0H6); enzyme activity, inhibitor; corrected for open conformation).
With `C#CCOCCC(=O)N[C@H](Cc1ccccc1)C(=O)N[C@@H](Cc1ccccc1)C(=O)N[C@@H](CCCNC(=N)N)C(=O)CCl` the Ki was 300 ± 40 nM (Replicase polyprotein 1ab, main protease (rep, Severe acute respiratory syndrome coronavirus 2, UniProt P0DTD1); enzyme activity, inhibitor).
`CSCC(CO)NCc1c[nH]c2c(N)ncnc12` (stereo not shown) gave a Ki of 0.8 ± 0.06 nM (MTA/SAH nucleosidase (Neisseria meningitidis, UniProt Q9K054); MTA hydrolysis, inhibitor).
`COc1cccc2c(N3CCC(CCP(=O)(O)O)CC3)ncnc12` has a Ki of less than 2 nM (Enpp1 (Mus musculus, UniProt P06802); enzyme activity, inhibitor, coupled luciferase AMP detection; pH 7.4, together with: cGAMP 5 µM).
For `C1=C(CCNCc2ccccc2)CCCC1`, the IC50 was 20 µg/mL (pheS, with PheT subunit (Acinetobacter baumannii, UniProt D0CA72); phenylalanine activation, inhibitor).
For `CC(C)CC(NC(=O)C1OC1C(=O)O)C(=O)NCCCCN=C(N)N` (stereo not shown), the IC50 was 33.7 nM (Pro-cathepsin H (Homo sapiens, UniProt P09668); enzyme activity, inhibitor).
For `CCC(c1ccc(-c2ccc(F)cc2)c(F)c1)n1ccnc1` (stereo not shown), the Kd was 5300 ± 1200 nM (cyp121; binding).
`CSC[C@H](NC(=O)Cc1ccc(N)cc1)C(=O)N[C@@H](Cc1ccccc1)[C@H](O)C(=O)N1CSC(C)(C)[C@H]1C(=O)N[C@H]1c2ccccc2C[C@H]1O` has a Ki of 6 nM (Plasmepsin IV (PMIV, Plasmodium falciparum 3D7, UniProt Q8IM16); inhibitor, fluorogenic substrate; pH 5.0, mature enzyme).
`CC(=O)Nc1ncc(CN2CC[C@H](Oc3cccc(F)n3)C[C@@H]2C)s1` [isotope labelled] has a Kd of 3.3 ± 2.9 nM (Protein O-GlcNAcase (Rattus norvegicus, UniProt Q8VIJ5); saturation binding; rat striatum homogenate; radiolabelled compound).
